Results collected from several papers.
A part holds a random share of what one study measured.

Study 1
Target: Hepatocyte nuclear factor 3-alpha (Foxa1, Mus musculus, UniProt P35582, residues 1-468, full length assumed)
Method: EMSA with sequencing
Form: double-stranded DNA, one strand shown
Sample: in vitro
Concentration: 10 and 20 nM
Notes: whole designed probe, mean of two concentrations, ends assumed
Baseline: negative control set to 0
Reading: higher = stronger binding
All sequences stand within: GTGAGCGGTGCCCATTGATGGGGAAC … TTTCACTGGGATCGTGGGGAC
Construct (chain): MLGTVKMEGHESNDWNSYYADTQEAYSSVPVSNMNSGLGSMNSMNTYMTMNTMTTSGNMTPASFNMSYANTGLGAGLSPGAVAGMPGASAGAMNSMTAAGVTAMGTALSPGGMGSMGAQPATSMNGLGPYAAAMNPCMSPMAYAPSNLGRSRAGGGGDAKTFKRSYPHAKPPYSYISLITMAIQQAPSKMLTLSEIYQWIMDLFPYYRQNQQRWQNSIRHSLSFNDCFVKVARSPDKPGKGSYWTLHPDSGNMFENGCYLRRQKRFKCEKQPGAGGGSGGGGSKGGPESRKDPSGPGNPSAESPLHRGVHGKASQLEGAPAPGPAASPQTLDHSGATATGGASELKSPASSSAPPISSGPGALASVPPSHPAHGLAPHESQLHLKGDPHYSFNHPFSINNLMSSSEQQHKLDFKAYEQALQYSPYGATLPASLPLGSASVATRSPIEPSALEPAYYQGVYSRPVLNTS
| Strand | normalised bound fraction [ratio] |
| --- | --- |
| CTCATTCCTTGCTTCCGCCAATAATCTGACTAGTAAAGAAGTCACTGCATGCCACAAATTGTCAGTGCTGACTTCCTCAACAAGGAAGTATAAGTAAATAAATATTAAGAGTGACTCAGTATATATGCAAATTCCATCTTGAGAATACCAACTCCTGATGCCAACTGATTGTCAGTCATGGCTACAACAGGAG | 0.401 |
| ATCTTCCCCCTCTTCCTTGCCCCACCAGCTCACCTACGGGGGTTATTTGCAGATAGGAAAATAAATAAAGCCGGCATTCGTTAACCCTCTTCTGGCGCAAACTGCTGTTTGCTCTGCATCTAACATGGTCCTTACGCGACGCCAGGCTCCGGGAGAGCAAAGCACCGTGTCAGGCGCATGATCCGGGGTGGCC | 0.355 |
| ATTAGTTCATGCCAGGCAGGGTTTGACCAAAACCTTGGACTCACTCCTGTCTGCTTTCCTTCAGTGACTAAGAGGATTCCTGAGATGGATGTGCAAACATGAAGTGTTTACTTTCCTCCATGGGAATGTACTTCTGGCTTCCACTCCTCAGCTGCTGCTGCTAAGCCAGTGAGATAGATGGTGGTTTGGAAAC | 0.406 |
| GCAGGTCCTGGAATCTGTCAGGGGTGGGACTCTGCCATCTTGTGGTTCAATAAGCTCTCCAGATGATTCTGATGCACATGTTTGAGAGCCACTTGTTTACATATAGCAGAGAAACCACCTGTCTCTCACCTCAAAGCTGACTCACCTGCAGAAACAATGAAAGATGATAATGACAGCCCCCCCAAAATACCTC | 0.349 |
| CCCTCATCCTGGGTGTCGGGGTGGGAGGTGTTCTCATCATGAATGGGAGGCGTACCCAGATCCAGCTCTGCCTTTTTTTAACCAAACCAGAGTGTAAACAAATGGTGACTCACCAGCTGTTAATCGACATAGCAAGATATGATACATGCCAGGAGAGAAAAAGAAAGTGCTGATGGAAAAATAATCTCATTAG | 0.33 |

Study 2
Target: Interferon regulatory factor 3, full length, phosphomimetic (IRF3, Homo sapiens, UniProt Q14653, residues 1-427, S386D/S396D/S398D/S402D/T404D/S405D)
Method: protein-binding microarray
Form: double-stranded DNA, one strand shown
Sample: in vitro
Concentration: 2540 nM top
Notes: 60-bp whole probe
With: salmon DNA 0.4 mg/ml
Baseline: random background probes
Reading: higher = stronger binding
All sequences stand within: GCCTAGCAC … GTCTTGATTCGCTTGACGCTGCTG
Construct (chain): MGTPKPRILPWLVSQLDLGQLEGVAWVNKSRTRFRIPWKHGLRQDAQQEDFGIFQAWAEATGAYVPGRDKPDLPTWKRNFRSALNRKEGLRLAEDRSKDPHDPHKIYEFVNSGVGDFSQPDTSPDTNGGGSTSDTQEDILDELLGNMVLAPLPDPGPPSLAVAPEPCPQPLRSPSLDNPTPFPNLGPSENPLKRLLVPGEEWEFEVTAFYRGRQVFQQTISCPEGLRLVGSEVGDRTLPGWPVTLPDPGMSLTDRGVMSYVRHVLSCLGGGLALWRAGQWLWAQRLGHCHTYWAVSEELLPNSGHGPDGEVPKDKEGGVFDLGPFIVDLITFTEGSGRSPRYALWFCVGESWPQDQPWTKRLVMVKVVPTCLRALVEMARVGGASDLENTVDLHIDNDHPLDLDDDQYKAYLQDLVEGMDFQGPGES
| Strand | fitted relative affinity [z-score] |
| --- | --- |
| TTAGGTCTCGGTCTCGGCTAGTGCTAG | 0.725 |
| GGCGGACTGGACTTTCGGGACGTGCTA | -0.157 |
| TTAGATATCAGTCTTGATTAGTGCTAG | 1.11 |
| GACGGTTTCTGTATCGGGACGTGCTAG | 4.73 |
| GACGGTATCGGGTTCCGGGACGTGCTA | 2.22 |
| CCTAGTTTCATTCCTGATCTGTGCTAG | 3.95 |
| ACACGGCTCTAAACTCATGTAGTGCTA | -0.421 |
| TTAGATCTTAGTCTCGATTAGTGCTAG | 0.153 |

Study 3
Target: Fragile X messenger ribonucleoprotein 1, C-terminal low-complexity region (Fmr1, Mus musculus, UniProt P35922)
Method: RNA Bind-n-Seq
Form: RNA
Sample: in vitro
Concentration: 200 nM
Notes: whole 134-nt RNA, ends assumed
With: 150 mM KCl
Baseline: input library
Reading: higher = stronger binding
All sequences stand within: GGGAGUUCUACAGUCCGACGAUC … UGGAAUUCUCGGGUGUCAAGG
| Strand | log2 enrichment |
| --- | --- |
| ACCAUGCAGGUGGGCAUCUUUGGGAAGUGGGGCAAGGAGGGGAUAGGGAGGGGGGUAACACUUUGGGAACAGGUGGUCCCAGGUCGUUUC | 0.65 |
| ACCAUGCAGGUGGGCAUCUUUGGGAAGUGGAAAAAGGGGGGGAUAGGGAGGGGGGUAACACUUUGGGAACAGGUGGUCCCAGGUCGUUUC | 0.675 |
| AACUAAUACUCUUAAAUGGUCUUUCAGUAUAGUGGUUCUUACGUAGUUUAACAUAGCUAUAAAUUGAGUUUAACAAUUUAUAAACUCAAG | -0.5 |
| UCAAGUCCUGUGCUACACAUCGUAUGUACCGAAUCGGGGUUGGGUUGGGUUGGGGAAAGUAUUAUGUUACGCCGUUCGGAUCUGCACUUC | 1.41 |
| ACCAUGCAGGUGGGCAUCUUCGGGAAGUGGGGCAAGGGGGGGAUAGGGAGGGGGGUAACACUUUGGGAACAGGUGGUCCCAGGUCGUUUC | 0.871 |
| AGUCCUGUGCUACACAUCGUAUGUACCGAAUCGGGAAAAAGGGAAAAAGGGUUUGGGAAAGUAUUAUGUUACGCCGUUCGGAUCUGCACU | -0.066 |
| GUCCUGUGCUACACAUCGUAUGUACCGAAUCAAAUUUUUUUAAAUUUAAACCCCCAAAAAAGUAUUAUGUUACGCCGUUCGGAUCUGCAC | 0.13 |
| UCAAGUCCUGUGCUACACAUCGUAUGUACCGAAUCGGGGCCGGGCCGGGCCGGGGAAAGUAUUAUGUUACGCCGUUCGGAUCUGCACUUC | 0.372 |

Single results of other studies
| Sequence | target | observed | form | reading | measurement | value |
| --- | --- | --- | --- | --- | --- | --- |
| FVKDWMDRI | HLA class I histocompatibility antigen, A alpha chain, allele A*80:01 (Homo sapiens, UniProt P04439) | peptide-MHC binding | peptide | direction not given | z-score of log IC50 | 0.38 |

Excerpt of the above (study 3):
| Strand | log2 enrichment |
| --- | --- |
| ACCAUGCAGGUGGGCAUCUUCGGGAAGUGGGGCAAGGGGGGGAUAGGGAGGGGGGUAACACUUUGGGAACAGGUGGUCCCAGGUCGUUUC | 0.871 |
